Assay results from different studies.
Each line is one published result; not all experiments were run side by side. ± gives the spread as reported.

Substance | target or system | test | test system | setting | measurement | value
CCO.C[C@H]1c2cccc(O)c2C(O)=C2C(=O)[C@]3(O)C(O)=C(C(N)=O)C(=O)[C@@H](N(C)C)[C@@H]3[C@@H](O)[C@@H]21.C[C@H]1c2cccc(O)c2C(O)=C2C(=O)[C@]3(O)C(O)=C(C(N)=O)C(=O)[C@@H](N(C)C)[C@@H]3[C@@H](O)[C@@H]21.Cl.Cl.O | Replicase polyprotein 1ab, main protease (rep, Severe acute respiratory syndrome coronavirus 2, UniProt P0DTD1) | reporter gene (mKate2), inhibitor |  | 20 µM | inhibition | 0.901%
Cn1cnc(Cn2c(=O)[nH]/c(=N\c3cc4cn(C)nc4cc3Cl)n(Cc3cc(F)c(F)cc3F)c2=O)n1 |  |  | human, severe renal impairment, plasma | oral, 375 mg single dose | AUC(0-last) | 1510 µg·h/mL
VNNSYECDIPIGAGI | human CD4 T cells | AIM | peptide |  | responding donors | 11%
CC[C@H](C)[C@H](NC(=O)[C@H](CC(C)C)NC(=O)[C@H](Cc1c[nH]c2ccccc12)NC(=O)[C@H](CCC(N)=O)NC(=O)[C@@H](NC(=O)[C@H](Cc1ccccc1)NC(=O)[C@H](C)NC(=O)[C@H](CCCCNC(=O)COCCOCCNC(=O)COCCOCCNC(=O)CC[C@H](NC(=O)CCCCCCCCCCCCCCCCCCC(=O)O)C(=O)O)NC(=O)[C@H](CCC(N)=O)NC(=O)[C@H](C)NC(=O)[C@@H](NC(=O)[C@H](CCCCN)NC(=O)[C@H](CC(=O)O)NC(=O)[C@H](CC(C)C)NC(=O)C(C)(C)NC(=O)[C@@H](NC(=O)[C@H](CO)NC(=O)[C@H](Cc1ccc(O)cc1)NC(=O)[C@H](CC(=O)O)NC(=O)[C@H](CO)NC(=O)[C@@H](NC(=O)[C@H](Cc1ccccc1)NC(=O)[C@@H](NC(=O)CNC(=O)[C@H](CCC(=O)O)NC(=O)C(C)(C)NC(=O)[C@@H](N)Cc1ccc(O)cc1)[C@@H](C)O)[C@@H](C)O)[C@@H](C)CC)[C@@H](C)CC)C(C)C)C(=O)N[C@@H](C)C(=O)NCC(=O)NCC(=O)N1CCC[C@H]1C(=O)N[C@@H](CO)C(=O)N[C@@H](CO)C(=O)NCC(=O)N[C@@H](C)C(=O)N1CCC[C@H]1C(=O)N1CCC[C@H]1C(=O)N1CCC[C@H]1C(=O)N[C@@H](CO)C(N)=O |  |  | healthy subjects, single ascending dose | 0.25 mg, baseline | serum lipase | 20.2 ± 8.4 U/L
RRGPEQTQGNFGDQE | human CD4 T cells | AIM | peptide |  | responding donors | 8%
Nc1ncnc2c([C@@H]3N[C@H](CO)[C@@H](O)[C@H]3O)c[nH]c12 | Marburg virus | antibody staining | HeLa, Musoke | 0.4 µM | antigen-positive cells | 10.1%
